Measurements from different studies.
Numbered parts are unrelated; each lists some results of a single study.

Series 1 — method: RNA Bind-n-Seq; molecule type: RNA; matrix: in vitro; tested at: 1 µM; setting: whole 134-nt RNA, ends assumed; with: 150 mM KCl; relative to: input library; direction: higher = stronger binding
Target: Ras GTPase-activating protein-binding protein 1, C-terminal RGG region (G3BP1, Homo sapiens, UniProt Q13283)
Chain of UniProt Q13283 (whole entry, looked up): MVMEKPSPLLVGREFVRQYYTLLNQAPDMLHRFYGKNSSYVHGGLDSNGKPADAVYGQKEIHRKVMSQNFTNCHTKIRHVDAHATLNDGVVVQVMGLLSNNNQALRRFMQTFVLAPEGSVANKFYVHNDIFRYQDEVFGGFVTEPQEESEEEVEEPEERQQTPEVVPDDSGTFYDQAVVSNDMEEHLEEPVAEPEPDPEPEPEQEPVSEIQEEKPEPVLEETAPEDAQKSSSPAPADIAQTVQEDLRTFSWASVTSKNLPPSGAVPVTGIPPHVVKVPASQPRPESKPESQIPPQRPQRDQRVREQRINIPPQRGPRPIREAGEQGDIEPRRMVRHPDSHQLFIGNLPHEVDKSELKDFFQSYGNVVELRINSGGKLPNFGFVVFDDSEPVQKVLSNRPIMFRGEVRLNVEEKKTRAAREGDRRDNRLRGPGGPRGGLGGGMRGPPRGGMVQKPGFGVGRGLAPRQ
Strand | log2 enrichment
GGGAGUUCUACAGUCCGACGAUCACCAUGCAGGUGGGCAUCUGUGGGAAGUGGGGCAAGGGGGGGAUAGGGAGGGGGGUAACACUUUGGGAACAGGUGGUCCCAGGUCGUUUCUGGAAUUCUCGGGUGUCAAGG | -1.23
GGGAGUUCUACAGUCCGACGAUCCUGUGCUACACAUCGUAUGUACCGAAUCGGUUUUUUUGGGGUUUUUUUGGGGUUUUUUUGGAAAGUAUUAUGUUACGCCGUUCGGAUCUGUGGAAUUCUCGGGUGUCAAGG | -1.14
GGGAGUUCUACAGUCCGACGAUCCAAGUCCUGUGCUACACAUCGUAUGUACCGAAUCGGGUUUUUGGGUGGGUUUGGGAAAGUAUUAUGUUACGCCGUUCGGAUCUGCACUUCUGGAAUUCUCGGGUGUCAAGG | 1.45
GGGAGUUCUACAGUCCGACGAUCUAACUUUAGAGGAGGAUCUGAUGGAUAUGGCAGUGGACGUGGAUUUGGGGAUGGCUAUAAUGGGUAAGGAGGAGGACCUGGAGGUGGCAAUGGAAUUCUCGGGUGUCAAGG | -0.681

Series 2 — method: protein-binding microarray; molecule type: double-stranded DNA, one strand shown; matrix: in vitro; tested at: 250 nM; setting: 60-bp whole probe; with: salmon DNA 0.4 mg/ml; relative to: random background probes; direction: higher = stronger binding; constant ends, left off below: GCCTAGCAC … GTCTTGATTCGCTTGACGCTGCTG
Target: Interferon regulatory factor 7, full length, phosphomimetic (IRF7, Homo sapiens, UniProt Q92985, residues 1-503, S101K/S471D/S472D/S475D/S476D/S477D/S483D/S484D/S487D)
Residues (chain): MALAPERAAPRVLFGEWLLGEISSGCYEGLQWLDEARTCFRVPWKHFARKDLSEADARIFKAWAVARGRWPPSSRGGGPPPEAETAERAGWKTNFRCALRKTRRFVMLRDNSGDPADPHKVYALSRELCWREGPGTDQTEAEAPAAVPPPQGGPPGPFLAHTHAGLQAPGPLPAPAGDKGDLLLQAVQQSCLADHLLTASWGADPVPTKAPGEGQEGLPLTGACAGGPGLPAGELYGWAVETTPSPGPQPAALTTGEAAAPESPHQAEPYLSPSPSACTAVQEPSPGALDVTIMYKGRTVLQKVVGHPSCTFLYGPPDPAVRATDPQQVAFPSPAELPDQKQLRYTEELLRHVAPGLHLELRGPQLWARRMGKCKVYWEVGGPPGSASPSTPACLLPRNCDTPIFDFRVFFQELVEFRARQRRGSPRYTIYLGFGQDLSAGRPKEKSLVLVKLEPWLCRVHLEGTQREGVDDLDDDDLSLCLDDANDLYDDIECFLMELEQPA
Strand | log fluorescence
CACCATCTAGTTCTGCTTTGGTGCTAG | 0.699 z-score
GTCGATTTCAGACTGGAGACGTGCTAG | 0.605 z-score
TTAGGTCTCTTTATCCTTTAGTGCTAG | 0.92 z-score
TTAGGACCGGGTATCGGTTAGTGCTAG | 1.7 z-score
GCCGGTTTCCTTTCCCTGACGTGCTAG | 5.44 z-score
TCATGTTTTAAATTCTAACTGTGCTAG | 0.902 z-score
CTAGGTTTCGGGTATCGGTTAGTGCTA | 8.02 z-score
TTAGGACTGGACACTGGGTGAGTGCTA | -0.764 z-score

Series 3 — method: protein binding microarray; molecule type: double-stranded DNA, one strand shown; matrix: in vitro; tested at: not given; relative to: not given; direction: higher = stronger binding
Target: Histone acetyltransferase KAT6A, both winged helices, GST fusion (KAT6A, Homo sapiens, UniProt Q92794, residues 1-181)
Setting: 8-mer, flanks averaged, mean of 2 arrays, mostly near background
Target sequence (chain): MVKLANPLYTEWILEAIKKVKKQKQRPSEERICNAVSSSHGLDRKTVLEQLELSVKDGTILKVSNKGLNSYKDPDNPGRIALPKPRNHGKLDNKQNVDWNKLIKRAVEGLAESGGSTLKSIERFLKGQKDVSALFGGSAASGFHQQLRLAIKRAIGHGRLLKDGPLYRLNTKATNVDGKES
Strand | E-score
TAATTGTA | -0.084
GGTACTGA | 0.0708
CCATGCCC | -0.181
AAGACACT | -0.0509
AGAAACCG | 0.0612
ACCGATAG | -0.0721
AACAATGC | -0.0337

Single results of other studies
Molecule | target | test | test system | conditions | scale | endpoint | value
PhoQ, residues 284 288 289 292 302 303 TNASYF | PhoP, residues 12 14 15 18 19 GHCSL (Escherichia coli, UniProt P23836) | Sort-seq, refers to: YFP reporter | E. coli | PhoQ-PhoP variant library, with: 10 µM Mg2+ | relative to: high Mg2+ state, higher = stronger signaling | fold induction | 13.7
